Results pooled from the literature.
Numbered parts are unrelated; each lists some results of a single study.

Series 1 — technique: protein-binding microarray; molecule type: double-stranded DNA, one strand shown; medium: in vitro; concentration: 2200 nM top; setting: 60-bp whole probe; with: salmon DNA 0.4 mg/ml; reference: random background probes; reading: higher = stronger binding; all sequences stand within: GCCTAGCAC … GTCTTGATTCGCTTGACGCTGCTG
Target: Interferon regulatory factor 7, full length, phosphomimetic (IRF7, Homo sapiens, UniProt Q92985, residues 1-503, S471D/S472D/S475D/S476D/S477D/S483D/S484D/S487D)
UniProt Q92985, sequence (whole entry, unmodified, looked up): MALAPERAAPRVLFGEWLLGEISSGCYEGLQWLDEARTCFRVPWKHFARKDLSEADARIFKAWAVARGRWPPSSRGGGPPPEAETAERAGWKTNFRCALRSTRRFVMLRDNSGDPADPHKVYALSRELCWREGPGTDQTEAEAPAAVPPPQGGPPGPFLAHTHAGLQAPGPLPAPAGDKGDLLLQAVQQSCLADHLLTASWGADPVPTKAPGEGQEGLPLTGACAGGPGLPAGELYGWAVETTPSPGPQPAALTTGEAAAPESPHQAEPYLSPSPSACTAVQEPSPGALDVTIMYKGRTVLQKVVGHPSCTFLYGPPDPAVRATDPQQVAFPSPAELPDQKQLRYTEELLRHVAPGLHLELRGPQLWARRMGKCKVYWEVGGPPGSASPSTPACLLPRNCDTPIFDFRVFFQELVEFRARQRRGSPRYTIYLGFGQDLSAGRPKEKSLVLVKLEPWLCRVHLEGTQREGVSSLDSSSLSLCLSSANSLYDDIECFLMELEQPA
Strand | fitted relative affinity [z-score]
GACGGTATCCTTCTCCTGATGTGCTAG | 1.06
AGAGAGAGAGAGAGAGAGAGGTGCTAG | -1.19
GACGGTATCGGGACAGGGGACGTGCTA | -0.35
GACGCTCTCGGTTTCGGGACGTGCTAG | 4.17
TCATTTTTTTTTCTGATACTGTGCTAG | 2.03
GCCGAACTGAGTTTCGAGACGTGCTAG | 2.28
GACGGAATCGGGTATCGGGACGTGCTA | -0.0423
TTAGAAGTGAGTTTCGATTAGTGCTAG | 3.68

Series 2 — action: inhibitor; concentration: 20 µM
Target: Replicase polyprotein 1ab, nsp13 helicase (rep, Severe acute respiratory syndrome coronavirus 2, UniProt P0DTD1)
SMILES | inhibition
COc1cc(C(=O)c2c(C)oc3c(O)c(OC)ccc23)cc(OC)c1OC | 9.77%
CNC(=O)[C@@H](Cc1ccccc1)N(C)C(=O)[C@@H](Cc1ccc2ccccc2c1)N(C)C(=O)/C=C/CC(C)(C)N | 1.89%
CCn1cc(C(=O)O)c(=O)c2cnc(N3CCCC3)nc21 | 7.06%
CC1CC(OC(=O)C(O)c2ccccc2)CC(C)(C)C1 (stereo not drawn) | 2.87%
O=C1C(=Cc2cccnc2)C(=O)c2ccccc21 | 97.9%
O=C1/C(=C/c2ccccc2)C(NC2CCCCC2)c2ccccc21 (stereo not drawn) | 17.7%
O=C(Cn1ccnc1[N+](=O)[O-])NCc1ccccc1 | 8.38%
CN(c1ncccc1CNc1nc(Nc2ccc3c(c2)CC(=O)N3)ncc1C(F)(F)F)S(C)(=O)=O | 9.31%
Cc1cc(C)c(N(Cc2ccccc2)S(=O)(=O)c2ccc(OCCNC(=O)c3cc4ccccc4o3)cc2)c(C(=O)NO)c1 | -0.1%
O=CN1CCC(C(=O)NCCN2CCC(=C3c4ccccc4C=Cc4ccccc43)CC2)CC1 | 8.81%
C=CCN1CCc2nc(N)sc2CC1 | -3.79%
CO/N=C(\C(=O)N[C@@H]1C(=O)N2C(C(=O)O)=C(C[N+]3(C)CCCC3)CS[C@H]12)c1csc(N)n1 | 4.66%
O=C(O)CCC(=O)O | 2.14%
CC(=O)Nc1ccccc1 | -0.64%
CCOC(=O)[C@H](CCc1ccccc1)N[C@@H](C)C(=O)N1Cc2ccccc2C[C@H]1C(=O)O | 2.08%
O=c1[nH]nc2c3c(cccc13)N=C(CN1Cc3ccccc3C1)N2 | 1.78%
CC(C)(C)c1ccc(CN(Cc2cccc(OCC(=O)O)c2)S(=O)(=O)c2cccnc2)cc1 | 5.92%
CCCCCCCCCCCCCC[C@@H](O)[C@@H](O)[C@@H](N)CO | -2.85%
O=C1Nc2ccccc2C12OCC1(CO2)COC2(OC1)C(=O)Nc1ccccc12 (stereo not drawn) | -4.43%
CC[C@@H](Cc1c(I)cc(I)c(N)c1I)C(=O)O | 1.83%
C/C(=C\c1ccc(C(=O)O)cc1)c1ccc2c(c1)C(C)(C)CCC2(C)C | 8.01%

Series 3 — technique: universal PBM; molecule type: double-stranded DNA, one strand shown; medium: in vitro; concentration: not given; reading: higher = stronger binding
Target: Sal-like protein 4, full length isoform B (SALL4, Homo sapiens, UniProt Q9UJQ4-2, residues 1-616)
Setting: 8-mer, flanks averaged, mean of replicates
Target sequence (chain): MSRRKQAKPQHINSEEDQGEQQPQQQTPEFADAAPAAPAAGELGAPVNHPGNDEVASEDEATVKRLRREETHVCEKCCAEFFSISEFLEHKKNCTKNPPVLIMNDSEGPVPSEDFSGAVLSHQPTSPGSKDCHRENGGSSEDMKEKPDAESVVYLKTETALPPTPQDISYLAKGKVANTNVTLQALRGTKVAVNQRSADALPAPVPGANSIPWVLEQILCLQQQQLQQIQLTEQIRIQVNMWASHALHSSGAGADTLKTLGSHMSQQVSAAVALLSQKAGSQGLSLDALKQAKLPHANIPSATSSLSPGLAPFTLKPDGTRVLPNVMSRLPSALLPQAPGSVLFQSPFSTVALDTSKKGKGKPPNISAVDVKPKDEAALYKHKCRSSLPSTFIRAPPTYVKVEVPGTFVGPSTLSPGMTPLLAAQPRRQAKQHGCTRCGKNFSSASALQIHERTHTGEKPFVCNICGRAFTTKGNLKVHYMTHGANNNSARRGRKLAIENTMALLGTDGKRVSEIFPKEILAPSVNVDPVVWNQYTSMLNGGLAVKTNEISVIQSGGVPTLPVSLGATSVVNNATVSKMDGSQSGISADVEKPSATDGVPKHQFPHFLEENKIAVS
Strand | E-score
ATGGTACC | -0.0871
ATTGTACC | 0.134
GTTTACAA | 0.227
CGCTCTGA | -0.285
TAGCGGCA | -0.199
TCCGCTCA | -0.191
ATCAGGAA | 0.039
CTTCGGAC | -0.0623

Series 4 — technique: protein binding microarray; molecule type: double-stranded DNA, one strand shown; medium: in vitro; concentration: not given; reference: not given; reading: higher = stronger binding
Target: Histone acetyltransferase KAT6A, winged helix 2, GST fusion (KAT6A, Homo sapiens, UniProt Q92794, residues 85-181)
Setting: 8-mer, flanks averaged, mean of 2 arrays, mostly near background
Construct (chain): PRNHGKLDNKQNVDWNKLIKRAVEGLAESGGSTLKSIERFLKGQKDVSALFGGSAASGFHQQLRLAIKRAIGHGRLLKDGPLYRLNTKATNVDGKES
Strand | E-score
CCTTGGAA | 0.00138
AGTTCTCG | 0.00761
AAACGAGC | 0.0836
ACCAATCT | 0.0321
CTCACCCA | 0.00473
TACCCTAA | -0.118
ATCTACTC | -0.0509
CCCCGGTA | -0.0248

Other studies, line by line — concentration: 10 µM
SMILES | target or system | test | test system | setting | how to read | endpoint | value
CCCCN1CCCCC1C(=O)Nc1c(C)cccc1C (stereo not drawn) | HEK-293T | pseudovirus infection, FDA-approved drug library screen | VSV pseudotyped with SARS-CoV-2 spike | 16 h | reference: vehicle-treated | GFP-positive cells | 98.7%
COc1ccc2[nH]c([S@@+]([O-])Cc3ncc(C)c(OC)c3C)nc2c1 | SARS-CoV-2 | cytopathic effect | Vero E6 |  |  | inhibition | 0.55%
C[C@@H]1C[C@H]2[C@@H]3C[C@H](F)C4=CC(=O)C=C[C@]4(C)[C@@]3(F)[C@@H](O)C[C@]2(C)[C@@]1(O)C(=O)CO | HEK-293T |  | VSV pseudotyped with SARS-CoV-2 spike | 16 h |  | pseudovirus infection | 82%

For quick reference, copied from above (series 2):
SMILES | inhibition
O=CN1CCC(C(=O)NCCN2CCC(=C3c4ccccc4C=Cc4ccccc43)CC2)CC1 | 8.81%
C/C(=C\c1ccc(C(=O)O)cc1)c1ccc2c(c1)C(C)(C)CCC2(C)C | 8.01%
O=C1/C(=C/c2ccccc2)C(NC2CCCCC2)c2ccccc21 (stereo not drawn) | 17.7%
CNC(=O)[C@@H](Cc1ccccc1)N(C)C(=O)[C@@H](Cc1ccc2ccccc2c1)N(C)C(=O)/C=C/CC(C)(C)N | 1.89%
COc1cc(C(=O)c2c(C)oc3c(O)c(OC)ccc23)cc(OC)c1OC | 9.77%
CC1CC(OC(=O)C(O)c2ccccc2)CC(C)(C)C1 (stereo not drawn) | 2.87%
